# Measured values of several laboratories.
# Each numbered part is a random draw from the data of one study; scales do not carry over between parts. Substitutions count along the parent as printed.

# Series 1 — target: CCNA2, cyclin fold, Cln2 fusion (human); technique: yeast growth competition, sequencing; matrix: yeast; setting: strong parent motif; reference: not given; reading: higher = stronger binding
# Starting sequence: PKMYT1 docking peptide (human); SFEPRNLLSLFED
Variant,normalised enrichment score
S9W,1.79
L10E,3.08
L8N,1.5
L8I,1.88
S1V,3.17
R5H,-1.15
E3F,3.22
F11S,-0.328
P4V,-0.656
S9C,1.78

# Series 2 — technique: RNA Bind-n-Seq; molecule type: RNA; matrix: in vitro; concentration: 365 nM; reference: no-protein control; reading: higher = stronger binding
# Target: RNA binding protein fox-1 homolog 2, RRM domain, GST-SBP tag (RBFOX2, Homo sapiens, UniProt O43251-10, residues 100-194)
# Setting: natural RNA segment, single round, ends assumed
# Shared flanks, not repeated: GGGAGUUCUACAGUCCGACGAUC … UGGAAUUCUCGGGUGCCAA
# Target sequence (chain): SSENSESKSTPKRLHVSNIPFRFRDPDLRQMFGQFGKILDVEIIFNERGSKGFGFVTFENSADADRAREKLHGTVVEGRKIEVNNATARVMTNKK
Sequence,RBNS enrichment (R)
UACAUCUGAGUUCAAAUGUCUUCCCAGGCUCAGGGACCUCCAUUCCUUGAGAUUGUCUUGGCAUGGCCCAGCCCUGCCUCAUGGGAUGGACAAUGCAUGGGGUGGUCUUU,0.158
UUCUUUCCUUUCCCUUCUCACCUCUUUGCCUCCUUCCCUAAAAUUCGCUGUGGCCCUCGGGGUCAGACUGUUCAUUCUCCAGCAUGAUUGUGCCUUUUAAUUAGAGGUCU,20.4
CAGGCUCUUGUCUGAACACCGCAGCCCCUCCUUCGCUCCUUCCAGAGCUCAGCAUGUCACGGCAAGGACUGCCGCAUUGGUGAUGGAGGGCCAGCUGAGGGGAAGUUGCU,19.5
GCACCUGGACACUAGAGUGGAUGAAUGUCUGGAGUUCACCUGCAUUUGGACUGUGUGAUUGUGCCUCAGACACUAGACCUCUUCCAGAUGGUUAGGUUGUUCUGUAGACU,2.97
UGGAGAACUAUGAGGCCCUCCUGAACCUGGCCGAGCGGCUGGGAGAUGCCAAGCCCCGGGGUCUCACCAAAGCAGACAUAGAGCAGCUCCCGUCGUACCGCUUUAACCCG,0.2
AUUUUAUUUGGCCACCUUCAGGUGAGACUAUCCAUAGACACAUGCUAGGAUAGGCCCCGCUGGGAGGGCAGUUACAGGAGAGAGUAGGUGGUGGUGACGUGAGGGCUGUG,1.13
UUCCUUGCCUCUUUACAGUACACUAAUCCGCCUAAAGGUGGCUGUUUGAUAUUUACCGUGAUAAUUACCUUACCUACCUACCUACUUUCAAUACACUUUAGGUAGCCGAU,1.06
AGUAGGAUGAGGCCUGUAUUACCGAAGUCUGGGAGCAUAAUUGAACUUGGUCUUCUGUGUUCUAGAGAACAGCACUGCUCUGACAAGUGAAUUCUUGAUAAAUGGCUAAU,0.319
ACUUCCAAGCGCAGGGACGCCGGCCUCCAGCUGGUGUGUGCUAAGGCUCCGUCCUGACUGCCCUGUGCCCUGGAAAAGCAGCAAUAGCAUCCGCCCCUUAGAGCCCUCUG,0.414
UUUAAAACAAAUUUGUGCAAACACUGCUAGAGUCAUUUUGAAGCUCAAGCAUUUUCACUUUGUUUCUUACAUGUGUACUUUUUUGUUUACUUGUGAAAAUGGCCAUCUUU,0.348
UGGAGCUAUCCCCUCCUCCCUCUUUUCUUUGCUUCCAGGGAUAUCCUUGCCUACCUCUUUCUAUCUCCCAGCAGCCCUCAGGUAGCAGUUGAUUUAUUUUACACCUCUGC,0.884
UGGGGCUGUGGCCCGUGCUGUAGUCUAUGGGCUCCUCCGUUCAAGCUGCAGCCCUGCUGGUCCCUUCAGCUCCACGCUGCUGCUCUGGCGAGGUUUUAAAGGGUGCCAUG,0.361

# Series 3 — technique: RNA Bind-n-Seq; molecule type: RNA; matrix: in vitro; concentration: 200 nM; setting: whole 134-nt RNA, ends assumed; added: 150 mM KCl; reference: input library; reading: higher = stronger binding
# Target: Ras GTPase-activating protein-binding protein 1, full length (G3BP1, Homo sapiens, UniProt Q13283)
# Sequence of UniProt Q13283 (whole entry, looked up): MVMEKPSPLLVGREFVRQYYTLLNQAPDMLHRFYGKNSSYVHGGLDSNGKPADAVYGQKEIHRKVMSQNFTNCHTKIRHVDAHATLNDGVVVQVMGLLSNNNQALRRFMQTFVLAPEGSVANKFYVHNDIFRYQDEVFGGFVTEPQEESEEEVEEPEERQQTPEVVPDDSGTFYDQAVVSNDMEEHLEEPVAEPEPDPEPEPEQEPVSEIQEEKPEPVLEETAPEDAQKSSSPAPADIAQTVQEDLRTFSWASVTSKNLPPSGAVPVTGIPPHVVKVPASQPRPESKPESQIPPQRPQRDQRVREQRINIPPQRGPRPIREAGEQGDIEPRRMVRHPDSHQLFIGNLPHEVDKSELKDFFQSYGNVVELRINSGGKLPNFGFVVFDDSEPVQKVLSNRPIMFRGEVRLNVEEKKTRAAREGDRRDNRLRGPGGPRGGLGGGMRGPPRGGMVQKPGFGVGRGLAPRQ
# Shared flanks, not repeated: GGGAGUUCUACAGUCCGACGAUC … UGGAAUUCUCGGGUGUCAAGG
Sequence,log2 enrichment
GUCCUGUGCUACACAUCGUAUGUACCGAAUCGGGGAAAGGGGUUUUUUUGGGGAGGGGAAAGUAUUAUGUUACGCCGUUCGGAUCUGCAC,0.663
UUCCUUUCCGUUGUGUGUUUUAAAGGUGUGUGCCCUCUUCCUGAUUCUGGAGAAAAAUGCCGGUCCGGAAGCAAGGUGAGAGUUUAUUCC,0.138
UGGGAGGUGGAUUUUGUUUAUUUUUUUAGCUCAUUUCCAGGGGUGCGAAUUUUUUUUUAAUAUGUGUCAUGAAUAAAGUUGUUUUUGAAA,0.772
CCUCAAGUCCUGUGCUACACAUCGUAUGUACCGAAUCGGUUGGGUUGGUUGGGAAAGUAUUAUGUUACGCCGUUCGGAUCUGCACUUCCA,-0.2
AAGUCCUGUGCUACACAUCGUAUGUACCGAAUCGGAAAAAGGAAAAAAAGGUUUGGAAAGUAUUAUGUUACGCCGUUCGGAUCUGCACUU,-1.83
GUCCUGUGCUACACAUCGUAUGUACCGAAUCAAACCCCCCCAAAUUUUUAAAUUUAAAAAAGUAUUAUGUUACGCCGUUCGGAUCUGCAC,0.261
CUCAAGUCCUGUGCUACACAUCGUAUGUACCGAAUCGGCCGGGCCGGGGCCGGAAAGUAUUAUGUUACGCCGUUCGGAUCUGCACUUCCA,-0.16
AGUCCUGUGCUACACAUCGUAUGUACCGAAUCGGAAAAAAAGGUUUUUGGAAAAAGGAAAGUAUUAUGUUACGCCGUUCGGAUCUGCACU,-1.73
UGGGAGGUGGAUUUUGUCUAUUUUUUUAGCUCAUUUCCAGGGGUGGGAAUUUUUUUUUAAUAUGUGUCAUGAAUAAAGUUGUUUUUGAAA,0.0686
UGGGUGAAGAGGGACAGUUACCUUCCUGUGGGCAGUCAUAAUCUCAAGGCGGCCGCCAAGGCCAAGCUAGGCUAUGAUCCCGUGGAGCUA,-1.27
CUGUGCUACACAUCGUAUGUACCGAAUCGGCCCCCCCGGGGCCCCCCCGGCCCCCCCGGGGAAAGUAUUAUGUUACGCCGUUCGGAUCUG,-0.754
UCUGAGCAAUUGAAUGCCCUAAACAAGGCUUACCAUGACCUUUGUGAUGGUUCUGCAAAUCAGCUUCAGCAGCUUCAGAGCCAGUUGGCU,-2.35
UCCUGUGCUACACAUCGUAUGUACCGAAUCGGGAAAAAAGGGGAAAAAAGGAAAAAAGGAAAGUAUUAUGUUACGCCGUUCGGAUCUGCA,-0.536
CACAGACAACACGCACCCAUACAGACACAGAGGGAAGGGGUUGGGAUGGGGACAGGGUGCACAGCAGGGCGGGGUAGGACCCCAGCCCCU,2.06

# Series 4 — technique: aptamer microarray, sandwich; molecule type: DNA with 2'F-ANA; matrix: in vitro; concentration: 200 nM; added: Cy3 exosite-II aptamer, 400 nM; reading: higher = stronger binding; sequence: GGTTGGTGTGGTTGG
# Target: Prothrombin, mature alpha-thrombin (F2, Homo sapiens, UniProt P00734)
# Setting: whole 15-mer aptamer, many near background
Modification,mean fluorescence intensity
2'F-ANA at 1 2 3 4 9 10 11 15,59.6 a.u.
2'F-ANA at 2 4 6 7 9 10 12 13 14 15,65.9 a.u.
2'F-ANA at 1 4 5 9 12 15,103 a.u.
2'F-ANA at 1 4 9 10 12 13 14 15,46.6 a.u.
2'F-ANA at 1 2 4 5 6 7 8 10 14,45.1 a.u.
2'F-ANA at 1 2 3 10,70.1 a.u.
2'F-ANA at 2 4 5 7 10 11 12 13 14 15,53.4 a.u.
2'F-ANA at 3 6 9 11 12,1010 a.u.
2'F-ANA at 1 2 5 6 7 9 10 12 13 14,46.3 a.u.
2'F-ANA at 1 2 3 5 6 9 10 11 12 13 14,52 a.u.
2'F-ANA at 2 6 12 14 15,151 a.u.
2'F-ANA at 10 11 12 13 14,122 a.u.
2'F-ANA at 4 5 6 7 9 13,94.9 a.u.
2'F-ANA at 6 11 12 13 15,552 a.u.
2'F-ANA at 2 5 6 7 8 11 12 14,48.3 a.u.
2'F-ANA at 3 5 6 8 9 12,297 a.u.

# Series 5 — target: NFE2L2, bZIP domain (human); technique: DHFR protein complementation; matrix: yeast; reference: wild-type JUN-FOS pair; reading: higher = stronger binding
# Setting: single substitutions, most at no-binding floor
# Starting sequence: JUN, bZIP domain (human); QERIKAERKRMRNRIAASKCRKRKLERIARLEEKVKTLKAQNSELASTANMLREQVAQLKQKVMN; partner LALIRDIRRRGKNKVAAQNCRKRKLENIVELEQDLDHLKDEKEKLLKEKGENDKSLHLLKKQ
Variant,binding fitness
E44L,-1.44 natural log
M51R,-1.43 natural log
N42I,-1.54 natural log
E54A,-1.5 natural log
T48Q,-1.58 natural log
L52A,-1.52 natural log
T37P,-1.52 natural log
N42G,-1.4 natural log
E44C,-1.44 natural log
E54H,-1.46 natural log
E54S,-1.5 natural log
E32P,-1.5 natural log
R53L,-1.43 natural log
L38P,-1.49 natural log
N42Y,-1.48 natural log

# Series 6 — technique: DHFR PCA, deep sequencing; matrix: yeast; added: (+)-ABA 1.4 µM; reference: wild-type fitted maximum; reading: higher = stronger binding
# Target: ABI1, truncated, D143A, DHFR fusion (Arabidopsis thaliana)
# Setting: methotrexate growth selection, single substitutions
# Starting sequence: PYL1, truncated, DHFR fusion (Arabidopsis thaliana); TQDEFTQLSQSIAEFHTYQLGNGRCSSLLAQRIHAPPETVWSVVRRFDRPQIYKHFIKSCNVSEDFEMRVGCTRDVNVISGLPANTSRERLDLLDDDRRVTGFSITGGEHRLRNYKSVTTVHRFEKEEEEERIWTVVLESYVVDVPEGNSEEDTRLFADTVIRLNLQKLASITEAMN
Variant,relative binding score [%]
T1A,64.5
R32F,28
A175E,49
T101E,-8.54
R90E,6.47
D153P,-13.9
L28H,3.93
L28W,15
N114C,-15.6
R88C,47
C60G,-4.01

# Repeated from above (series 1):
Variant,normalised enrichment score
F11S,-0.328
S9C,1.78
E3F,3.22
L10E,3.08
R5H,-1.15
S9W,1.79
S1V,3.17
P4V,-0.656
L8N,1.5
L8I,1.88
